{"data": "Published values pooled from the literature", "KCNH2": "Voltage-gated inwardly rectifying potassium channel KCNH2 (KCNH2, Homo sapiens, UniProt Q12809)", "note": "± gives the spread as reported.", "chain of UniProt Q12809 (whole entry, looked up)": "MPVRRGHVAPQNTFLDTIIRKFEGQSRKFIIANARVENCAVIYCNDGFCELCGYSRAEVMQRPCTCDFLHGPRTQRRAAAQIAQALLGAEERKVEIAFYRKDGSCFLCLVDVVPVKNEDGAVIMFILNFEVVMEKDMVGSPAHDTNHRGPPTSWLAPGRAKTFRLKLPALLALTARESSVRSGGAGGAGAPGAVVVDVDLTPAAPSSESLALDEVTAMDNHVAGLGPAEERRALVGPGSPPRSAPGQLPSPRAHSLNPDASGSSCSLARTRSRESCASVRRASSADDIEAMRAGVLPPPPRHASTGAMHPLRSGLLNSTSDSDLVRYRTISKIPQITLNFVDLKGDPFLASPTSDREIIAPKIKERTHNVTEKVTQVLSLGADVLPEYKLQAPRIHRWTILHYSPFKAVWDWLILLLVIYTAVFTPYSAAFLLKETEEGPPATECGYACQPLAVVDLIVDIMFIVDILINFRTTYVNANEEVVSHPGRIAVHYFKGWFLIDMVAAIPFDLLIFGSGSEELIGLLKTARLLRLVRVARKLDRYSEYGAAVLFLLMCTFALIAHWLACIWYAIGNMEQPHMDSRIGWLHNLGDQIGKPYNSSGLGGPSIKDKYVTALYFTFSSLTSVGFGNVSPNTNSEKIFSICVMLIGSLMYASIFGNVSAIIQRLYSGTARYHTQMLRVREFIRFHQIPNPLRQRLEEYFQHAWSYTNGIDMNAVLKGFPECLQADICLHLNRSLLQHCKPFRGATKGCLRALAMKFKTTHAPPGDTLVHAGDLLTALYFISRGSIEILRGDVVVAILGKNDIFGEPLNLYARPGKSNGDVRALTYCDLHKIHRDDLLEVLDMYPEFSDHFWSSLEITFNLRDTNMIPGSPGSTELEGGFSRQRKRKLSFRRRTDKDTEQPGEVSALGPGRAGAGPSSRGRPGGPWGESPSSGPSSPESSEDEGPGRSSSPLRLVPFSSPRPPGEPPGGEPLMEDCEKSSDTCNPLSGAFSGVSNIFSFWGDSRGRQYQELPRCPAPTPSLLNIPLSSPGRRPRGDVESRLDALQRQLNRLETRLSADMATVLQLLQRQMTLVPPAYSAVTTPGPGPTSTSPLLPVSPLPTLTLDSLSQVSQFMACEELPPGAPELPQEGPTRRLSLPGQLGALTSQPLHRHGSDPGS"}
{"Structure (SMILES)": "CC(C)n1c(C2CCNCC2)nc2c([N+](=O)[O-])c(Br)c(Br)cc21", "system": "patients with AML", "setting": "125 mg, test, SARS-CoV-2, positive", "endpoint": "AE leading to interruption", "result": "2%"}
{"Structure (SMILES)": "Cc1cc(C)c(CNC(=O)c2cc(Cl)c3c(c2C)O[C@@](C)([C@H]2CC[C@H](N(C)C)CC2)O3)c(=O)[nH]1", "system": "human, relapsed/refractory NHL", "setting": "concentration not given, treatment-related TEAEs, grade 4", "endpoint": "COVID-19 pneumonia incidence", "result": "0%"}
{"Structure (SMILES)": "CC(C)(C)[C@H](NC(=O)C(F)(F)F)C(=O)N1C[C@H]2[C@@H]([C@H]1C(=O)N[C@H](C#N)C[C@@H]1CCNC1=O)C2(C)C", "system": "human, fasted", "setting": "oral, 1500 mg single dose, 28 days, no ritonavir", "endpoint": "participants with serious adverse events", "result": "0%"}
{"Structure (SMILES)": "O=C[C@H](C[C@@H]1CCNC1=O)NC(=O)[C@H](CC1CCCCC1)NC(=O)c1cc2ccccc2[nH]1", "system": "rats, plasma", "setting": "intravenous, 16 mg/kg", "endpoint": "AUC", "result": "10600 ng·h/mL"}
{"Structure (SMILES)": "CC(C)C(=O)OC[C@H]1O[C@@H](n2ccc(NO)nc2=O)[C@H](O)[C@@H]1O", "system": "rat plasma", "setting": "100 µM, 1 h, added: digitonin 100 µM", "endpoint": "remaining compound", "result": "0%"}
{"Structure (SMILES)": "Nc1ncnc2c([C@@H]3N[C@H](CO)[C@@H](O)[C@H]3O)c[nH]c12", "tested on": "Yellow fever virus", "assay": "viral replication", "system": "Vero 76, 17D", "setting": "0.9 µM", "endpoint": "inhibition", "result": "0%"}
{"Structure (SMILES)": "Cn1cnc(Cn2c(=O)[nH]/c(=N\\c3cc4cn(C)nc4cc3Cl)n(Cc3cc(F)c(F)cc3F)c2=O)n1", "system": "human, mild severity, treatment-related TEAE", "setting": "oral, 375 mg", "endpoint": "patients with TEAE", "result": "3.1%"}
{"Structure (SMILES)": "Cn1cnc(Cn2c(=O)[nH]/c(=N\\c3cc4cn(C)nc4cc3Cl)n(Cc3cc(F)c(F)cc3F)c2=O)n1", "system": "healthy Japanese adults, plasma", "setting": "oral, 750 mg, day 1, multiple dosing, fasted, added: prednisolone", "endpoint": "Cmax", "result": "33100 ng/mL"}
{"Structure (SMILES)": "CC(=O)c1c(O)c(C)c(O)c(Cc2c(O)c3c(c(C(=O)/C=C/c4ccccc4)c2O)OC(C)(C)C=C3)c1O", "tested on": "KCNH2", "assay": "potassium current, whole-cell patch clamp", "system": "HEK293 expressing hERG1", "setting": "4 µM, at 0 mV", "how to read": "baseline: control", "endpoint": "activation rate acceleration", "result": "1.5 ± 0.1 fold"}
{"Structure (SMILES)": "CC[C@H](C)[C@H](NC(=O)[C@H](CC(C)C)NC(=O)[C@H](Cc1c[nH]c2ccccc12)NC(=O)[C@H](CCC(N)=O)NC(=O)[C@@H](NC(=O)[C@H](Cc1ccccc1)NC(=O)[C@H](C)NC(=O)[C@H](CCCCNC(=O)COCCOCCNC(=O)COCCOCCNC(=O)CC[C@H](NC(=O)CCCCCCCCCCCCCCCCCCC(=O)O)C(=O)O)NC(=O)[C@H](CCC(N)=O)NC(=O)[C@H](C)NC(=O)[C@@H](NC(=O)[C@H](CCCCN)NC(=O)[C@H](CC(=O)O)NC(=O)[C@H](CC(C)C)NC(=O)C(C)(C)NC(=O)[C@@H](NC(=O)[C@H](CO)NC(=O)[C@H](Cc1ccc(O)cc1)NC(=O)[C@H](CC(=O)O)NC(=O)[C@H](CO)NC(=O)[C@@H](NC(=O)[C@H](Cc1ccccc1)NC(=O)[C@@H](NC(=O)CNC(=O)[C@H](CCC(=O)O)NC(=O)C(C)(C)NC(=O)[C@@H](N)Cc1ccc(O)cc1)[C@@H](C)O)[C@@H](C)O)[C@@H](C)CC)[C@@H](C)CC)C(C)C)C(=O)N[C@@H](C)C(=O)NCC(=O)NCC(=O)N1CCC[C@H]1C(=O)N[C@@H](CO)C(=O)N[C@@H](CO)C(=O)NCC(=O)N[C@@H](C)C(=O)N1CCC[C@H]1C(=O)N1CCC[C@H]1C(=O)N1CCC[C@H]1C(=O)N[C@@H](CO)C(N)=O", "system": "healthy subjects", "setting": "all MAD doses", "endpoint": "subjects with vessel puncture bruise", "result": "0%"}
{"Structure (SMILES)": "Cc1cc(C)c(CNC(=O)c2cc(Cl)c3c(c2C)O[C@@](C)([C@H]2CC[C@H](N(C)C)CC2)O3)c(=O)[nH]1", "assay": "refers to: COVID-19", "system": "human patients", "setting": "oral, 200 mg once daily, 1 day onset day 14", "endpoint": "patients with grade ≥3 TEAE", "result": "0%"}
{"Structure (SMILES)": "C=CC(=O)N1CCC([C@@H]2CCNc3c(C(N)=O)c(-c4ccc(Oc5ccccc5)cc4)nn32)CC1", "system": "healthy human volunteers", "setting": "160 mg", "endpoint": "TEAE, positive test, SARS-CoV-2", "result": "3.4%"}
{"Structure (SMILES)": "C[C@@H]1Cc2c(Cl)cc(C(=O)N[C@@H](Cc3ccccc3)C(=O)O)c(O)c2C(=O)O1", "system": "chicken embryo", "setting": "in ovo injection, 0.50 µg/egg", "endpoint": "body weight to egg weight ratio", "result": "72.2 ± 2.9"}
{"Structure (SMILES)": "C=C(C[C@@]12C[C@@H](C)C[C@H](O1)[C@H]1O[C@]3(C[C@H]1O2)NC[C@H](C)C[C@@H]3C)[C@H]1O[C@@](O)([C@@H](O)[C@@H]2C[C@H]3O[C@@]4(CC[C@]5(CC=C[C@@H](/C=C/CCC(=O)O)O5)O4)[C@H](C)C[C@H]3O2)[C@H](C)C[C@@H]1C", "tested on": "KCNH2", "assay": "ion current, inhibitor, thallium flux", "system": "HEK293 expressing hERG", "setting": "15 min", "endpoint": "IC50", "result": "4.2 µM"}
{"Structure (SMILES)": "Cc1ncc2n1-c1ccc(Cl)cc1C(c1ccccc1F)=NC2", "system": "healthy male humans, plasma", "setting": "oral, dose not given, phase I DDI study, added: vericiguat", "endpoint": "AUC", "result": "96.4 ng·h/mL"}
{"Structure (SMILES)": "CC[C@H](C)[C@H](NC(=O)[C@H](CC(C)C)NC(=O)[C@H](Cc1c[nH]c2ccccc12)NC(=O)[C@H](CCC(N)=O)NC(=O)[C@@H](NC(=O)[C@H](Cc1ccccc1)NC(=O)[C@H](C)NC(=O)[C@H](CCCCNC(=O)COCCOCCNC(=O)COCCOCCNC(=O)CC[C@H](NC(=O)CCCCCCCCCCCCCCCCCCC(=O)O)C(=O)O)NC(=O)[C@H](CCC(N)=O)NC(=O)[C@H](C)NC(=O)[C@@H](NC(=O)[C@H](CCCCN)NC(=O)[C@H](CC(=O)O)NC(=O)[C@H](CC(C)C)NC(=O)C(C)(C)NC(=O)[C@@H](NC(=O)[C@H](CO)NC(=O)[C@H](Cc1ccc(O)cc1)NC(=O)[C@H](CC(=O)O)NC(=O)[C@H](CO)NC(=O)[C@@H](NC(=O)[C@H](Cc1ccccc1)NC(=O)[C@@H](NC(=O)CNC(=O)[C@H](CCC(=O)O)NC(=O)C(C)(C)NC(=O)[C@@H](N)Cc1ccc(O)cc1)[C@@H](C)O)[C@@H](C)O)[C@@H](C)CC)[C@@H](C)CC)C(C)C)C(=O)N[C@@H](C)C(=O)NCC(=O)NCC(=O)N1CCC[C@H]1C(=O)N[C@@H](CO)C(=O)N[C@@H](CO)C(=O)NCC(=O)N[C@@H](C)C(=O)N1CCC[C@H]1C(=O)N1CCC[C@H]1C(=O)N1CCC[C@H]1C(=O)N[C@@H](CO)C(N)=O", "system": "human", "setting": "subcutaneous, 10.0 mg once weekly, week 15, multiple doses", "endpoint": "CL/F", "result": "0.635 mL/min"}
{"Structure (SMILES)": "C[C@H]1CN(C(=O)CC#N)[C@]12CCN(c1ncnc3[nH]ccc13)C2", "system": "human", "setting": "oral, 1.5 mg single dose", "endpoint": "participants with positive SARS-CoV-2 test", "result": "0%"}
{"Structure (SMILES)": "Cc1cn([C@H]2O[C@@H](CO[P@@](=O)(N[C@@H](C)C(=O)OC(C)C)Oc3ccccc3)[C@H](O)[C@H]2F)c(=O)[nH]c1=O", "assay": "refers to: COVID-19 infection", "system": "human", "setting": "25 mg", "endpoint": "patients with TEAE", "result": "20%"}
{"Structure (SMILES)": "CC[C@H](C)[C@H](NC(=O)[C@H](CC(C)C)NC(=O)[C@H](Cc1c[nH]c2ccccc12)NC(=O)[C@H](CCC(N)=O)NC(=O)[C@@H](NC(=O)[C@H](Cc1ccccc1)NC(=O)[C@H](C)NC(=O)[C@H](CCCCNC(=O)COCCOCCNC(=O)COCCOCCNC(=O)CC[C@H](NC(=O)CCCCCCCCCCCCCCCCCCC(=O)O)C(=O)O)NC(=O)[C@H](CCC(N)=O)NC(=O)[C@H](C)NC(=O)[C@@H](NC(=O)[C@H](CCCCN)NC(=O)[C@H](CC(=O)O)NC(=O)[C@H](CC(C)C)NC(=O)C(C)(C)NC(=O)[C@@H](NC(=O)[C@H](CO)NC(=O)[C@H](Cc1ccc(O)cc1)NC(=O)[C@H](CC(=O)O)NC(=O)[C@H](CO)NC(=O)[C@@H](NC(=O)[C@H](Cc1ccccc1)NC(=O)[C@@H](NC(=O)CNC(=O)[C@H](CCC(=O)O)NC(=O)C(C)(C)NC(=O)[C@@H](N)Cc1ccc(O)cc1)[C@@H](C)O)[C@@H](C)O)[C@@H](C)CC)[C@@H](C)CC)C(C)C)C(=O)N[C@@H](C)C(=O)NCC(=O)NCC(=O)N1CCC[C@H]1C(=O)N[C@@H](CO)C(=O)N[C@@H](CO)C(=O)NCC(=O)N[C@@H](C)C(=O)N1CCC[C@H]1C(=O)N1CCC[C@H]1C(=O)N1CCC[C@H]1C(=O)N[C@@H](CO)C(N)=O", "system": "human, moderate renal impairment, plasma", "setting": "subcutaneous, 5 mg single dose, median", "endpoint": "Tmax", "result": "60 h"}
{"Structure (SMILES)": "C[C@@H]1COCCN1c1cc(C2([S@](C)(=N)=O)CC2)nc(-c2cc[nH]c3nccc2-3)n1", "system": "Japanese advanced solid tumour patients", "setting": "oral, 240 mg twice daily, CTCAE grade ≥3", "endpoint": "COVID-19 incidence", "result": "0%"}
{"Structure (SMILES)": "CNC(=O)[C@@H](NC(=O)[C@H](CC(C)C)[C@H](O)C(=O)NO)C(C)(C)C", "tested on": "human fibrinogen", "assay": "SDS-PAGE", "system": "Daboia russelii", "setting": "concentration not given, unit not given, added: PB venom", "how to read": "baseline: untreated fibrinogen", "endpoint": "remaining fibrinogen Aα chain", "result": 0.803}
{"note": "Excerpt of the above:"}
{"Structure (SMILES)": "CC(=O)c1c(O)c(C)c(O)c(Cc2c(O)c3c(c(C(=O)/C=C/c4ccccc4)c2O)OC(C)(C)C=C3)c1O", "tested on": "KCNH2", "assay": "potassium current, whole-cell patch clamp", "system": "HEK293 expressing hERG1", "setting": "4 µM, at 0 mV", "how to read": "baseline: control", "endpoint": "activation rate acceleration", "result": "1.5 ± 0.1 fold"}
{"Structure (SMILES)": "Nc1ncnc2c([C@@H]3N[C@H](CO)[C@@H](O)[C@H]3O)c[nH]c12", "tested on": "Yellow fever virus", "assay": "viral replication", "system": "Vero 76, 17D", "setting": "0.9 µM", "endpoint": "inhibition", "result": "0%"}
